Results pooled from the literature.
Every numbered part comes from another study and shows a few of its results, in no order. Substitutions count along the parent as printed.
Chain of UniProt Q94JM3 (whole entry, looked up): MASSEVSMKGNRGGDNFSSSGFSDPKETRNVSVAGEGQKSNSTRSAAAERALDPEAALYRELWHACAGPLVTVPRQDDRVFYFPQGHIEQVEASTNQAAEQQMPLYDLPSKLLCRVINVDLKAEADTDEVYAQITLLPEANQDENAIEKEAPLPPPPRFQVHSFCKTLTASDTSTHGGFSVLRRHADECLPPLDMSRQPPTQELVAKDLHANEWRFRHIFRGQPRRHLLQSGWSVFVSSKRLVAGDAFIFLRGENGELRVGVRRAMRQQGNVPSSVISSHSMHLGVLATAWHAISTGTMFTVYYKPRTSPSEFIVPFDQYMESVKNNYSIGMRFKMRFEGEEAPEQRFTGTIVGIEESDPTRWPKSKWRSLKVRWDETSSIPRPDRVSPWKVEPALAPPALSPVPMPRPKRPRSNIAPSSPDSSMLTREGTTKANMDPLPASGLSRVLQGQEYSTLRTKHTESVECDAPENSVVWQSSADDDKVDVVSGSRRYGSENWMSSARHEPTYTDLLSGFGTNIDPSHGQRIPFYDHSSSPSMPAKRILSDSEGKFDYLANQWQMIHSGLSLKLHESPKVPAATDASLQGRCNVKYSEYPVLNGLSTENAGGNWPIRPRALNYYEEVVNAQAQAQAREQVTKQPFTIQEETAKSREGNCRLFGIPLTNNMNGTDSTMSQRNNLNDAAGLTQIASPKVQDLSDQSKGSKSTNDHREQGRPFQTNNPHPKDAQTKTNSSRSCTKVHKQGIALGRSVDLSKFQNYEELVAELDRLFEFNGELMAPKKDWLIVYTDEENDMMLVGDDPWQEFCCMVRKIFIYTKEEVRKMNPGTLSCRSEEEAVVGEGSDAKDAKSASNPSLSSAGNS
Chain of UniProt Q9SKN5 (whole entry, looked up): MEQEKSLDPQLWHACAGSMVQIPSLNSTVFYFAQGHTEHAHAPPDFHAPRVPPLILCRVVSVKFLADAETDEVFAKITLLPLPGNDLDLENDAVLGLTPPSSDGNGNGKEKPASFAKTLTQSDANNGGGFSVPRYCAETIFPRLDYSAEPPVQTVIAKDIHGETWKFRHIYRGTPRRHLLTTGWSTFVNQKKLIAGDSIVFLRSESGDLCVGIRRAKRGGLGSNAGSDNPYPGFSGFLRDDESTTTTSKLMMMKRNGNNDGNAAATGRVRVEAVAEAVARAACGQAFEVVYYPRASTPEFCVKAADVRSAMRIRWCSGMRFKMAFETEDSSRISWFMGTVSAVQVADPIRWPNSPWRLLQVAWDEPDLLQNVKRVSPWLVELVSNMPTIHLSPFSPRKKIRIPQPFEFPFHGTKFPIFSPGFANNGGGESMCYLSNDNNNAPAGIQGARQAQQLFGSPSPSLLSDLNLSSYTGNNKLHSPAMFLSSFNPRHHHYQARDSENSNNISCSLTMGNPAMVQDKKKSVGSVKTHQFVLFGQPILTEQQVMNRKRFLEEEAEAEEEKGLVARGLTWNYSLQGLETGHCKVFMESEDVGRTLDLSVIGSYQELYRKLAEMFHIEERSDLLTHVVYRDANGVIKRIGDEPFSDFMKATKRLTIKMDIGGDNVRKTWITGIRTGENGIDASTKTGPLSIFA
Chain of UniProt Q9ZSY8 (whole entry, looked up): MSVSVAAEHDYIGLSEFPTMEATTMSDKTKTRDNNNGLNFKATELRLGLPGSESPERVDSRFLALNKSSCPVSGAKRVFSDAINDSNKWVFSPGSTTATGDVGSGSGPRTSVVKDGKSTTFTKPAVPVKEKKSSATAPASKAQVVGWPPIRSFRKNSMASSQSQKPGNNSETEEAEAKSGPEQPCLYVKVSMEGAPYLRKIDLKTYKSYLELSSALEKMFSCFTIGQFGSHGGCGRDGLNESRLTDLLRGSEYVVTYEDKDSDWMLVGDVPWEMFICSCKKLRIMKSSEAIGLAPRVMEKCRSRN
Chain of UniProt Q9FKM7 (whole entry, looked up): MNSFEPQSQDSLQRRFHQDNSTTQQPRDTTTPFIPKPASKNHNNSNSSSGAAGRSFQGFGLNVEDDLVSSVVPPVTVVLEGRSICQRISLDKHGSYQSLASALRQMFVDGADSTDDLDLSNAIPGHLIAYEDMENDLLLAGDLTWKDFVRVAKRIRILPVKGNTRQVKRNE
Chain of UniProt Q9M1R4 (whole entry, looked up): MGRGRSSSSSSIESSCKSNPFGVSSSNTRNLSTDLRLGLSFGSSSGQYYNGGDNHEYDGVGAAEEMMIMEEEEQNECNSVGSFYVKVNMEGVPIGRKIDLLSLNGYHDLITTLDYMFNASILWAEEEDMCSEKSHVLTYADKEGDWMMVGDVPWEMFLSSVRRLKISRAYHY
Chain of UniProt Q8L7G0 (whole entry, looked up): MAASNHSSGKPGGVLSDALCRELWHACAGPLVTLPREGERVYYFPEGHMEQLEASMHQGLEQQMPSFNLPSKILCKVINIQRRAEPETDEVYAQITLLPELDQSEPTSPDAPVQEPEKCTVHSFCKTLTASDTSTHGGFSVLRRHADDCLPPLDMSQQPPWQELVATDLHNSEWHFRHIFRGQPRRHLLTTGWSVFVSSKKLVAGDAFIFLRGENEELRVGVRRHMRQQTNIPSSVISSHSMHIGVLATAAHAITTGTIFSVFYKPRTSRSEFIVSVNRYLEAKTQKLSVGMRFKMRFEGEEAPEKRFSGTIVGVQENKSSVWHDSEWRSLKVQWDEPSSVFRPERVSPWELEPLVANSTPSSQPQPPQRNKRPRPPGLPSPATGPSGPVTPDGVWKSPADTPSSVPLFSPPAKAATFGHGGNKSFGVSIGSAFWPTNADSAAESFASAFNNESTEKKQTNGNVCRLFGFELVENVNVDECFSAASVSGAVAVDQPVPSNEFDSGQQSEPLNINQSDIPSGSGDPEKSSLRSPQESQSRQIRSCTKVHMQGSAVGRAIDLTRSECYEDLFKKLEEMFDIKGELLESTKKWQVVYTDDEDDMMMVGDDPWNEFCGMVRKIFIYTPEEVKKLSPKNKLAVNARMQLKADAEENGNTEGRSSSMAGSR
Chain of UniProt Q8RYC8 (whole entry, looked up): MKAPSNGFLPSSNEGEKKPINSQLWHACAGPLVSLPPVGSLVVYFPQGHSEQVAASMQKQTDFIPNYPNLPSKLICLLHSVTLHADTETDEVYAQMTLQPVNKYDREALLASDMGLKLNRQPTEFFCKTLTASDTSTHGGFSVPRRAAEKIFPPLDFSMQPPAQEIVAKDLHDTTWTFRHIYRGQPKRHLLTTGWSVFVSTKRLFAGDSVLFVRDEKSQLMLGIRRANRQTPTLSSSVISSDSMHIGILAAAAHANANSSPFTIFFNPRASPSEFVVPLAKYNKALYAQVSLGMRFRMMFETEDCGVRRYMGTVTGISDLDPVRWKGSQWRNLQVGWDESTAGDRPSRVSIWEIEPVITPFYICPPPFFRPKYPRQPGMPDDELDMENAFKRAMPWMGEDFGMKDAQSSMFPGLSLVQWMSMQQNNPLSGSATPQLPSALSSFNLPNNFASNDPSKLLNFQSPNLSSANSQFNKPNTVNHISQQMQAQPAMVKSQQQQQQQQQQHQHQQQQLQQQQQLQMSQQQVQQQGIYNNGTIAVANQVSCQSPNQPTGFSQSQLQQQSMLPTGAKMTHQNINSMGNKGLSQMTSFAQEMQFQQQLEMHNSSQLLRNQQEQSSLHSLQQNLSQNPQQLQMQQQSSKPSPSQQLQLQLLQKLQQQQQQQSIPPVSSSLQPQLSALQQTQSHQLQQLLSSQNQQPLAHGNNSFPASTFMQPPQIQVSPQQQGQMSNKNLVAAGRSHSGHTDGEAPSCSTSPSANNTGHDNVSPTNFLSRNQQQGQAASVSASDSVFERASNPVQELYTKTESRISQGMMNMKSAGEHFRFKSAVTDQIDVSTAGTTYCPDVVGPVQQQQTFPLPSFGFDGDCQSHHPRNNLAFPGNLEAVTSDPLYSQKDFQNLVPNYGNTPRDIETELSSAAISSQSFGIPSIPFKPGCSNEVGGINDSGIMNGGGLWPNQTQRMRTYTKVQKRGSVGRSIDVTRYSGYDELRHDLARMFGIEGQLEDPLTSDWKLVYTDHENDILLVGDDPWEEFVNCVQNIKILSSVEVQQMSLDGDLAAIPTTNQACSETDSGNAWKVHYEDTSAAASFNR

Set 1 — technique: DHFR PCA, deep sequencing; sample: yeast; together with: (+)-ABA 1.4 µM; reference: wild-type fitted maximum; reading: higher = stronger binding
Target: ABI1, truncated, D143A, DHFR fusion (Arabidopsis thaliana)
Notes: methotrexate growth selection, single substitutions
Starting sequence: PYL1, truncated, DHFR fusion (Arabidopsis thaliana); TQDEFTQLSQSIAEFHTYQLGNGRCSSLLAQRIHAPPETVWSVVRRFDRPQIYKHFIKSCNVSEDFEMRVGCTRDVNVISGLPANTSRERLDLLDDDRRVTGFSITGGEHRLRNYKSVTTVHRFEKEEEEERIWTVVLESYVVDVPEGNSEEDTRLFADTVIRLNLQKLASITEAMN
`E128D` — result for “relative binding score”: 74.9%.
For `F157W`, “relative binding score” read 9.43%.
`W41A` — result for “relative binding score”: -8.77%.
`A35R`: “relative binding score” -10.3%.
Under “relative binding score”, `F124Q` is recorded as 23.6%.
`H55D` — result for “relative binding score”: 13.5%.
`R49V`: “relative binding score” 16.5%.
`F66D` — result for “relative binding score”: 25.5%.

Set 2 — target: CCNE2, cyclin fold, Cln2 fusion (human); technique: yeast growth competition, sequencing; sample: yeast; notes: strong parent motif; reference: not given; reading: higher = stronger binding; starting sequence: viral docking peptide; TSVRRALFTGGSD
For `TSVRRGLFTGGSD [A6G]`, “normalised enrichment score” read 0.874.
`TSVERALFTGGSD [R4E]` — result for “normalised enrichment score”: 0.138.
For `TSVRSALFTGGSD [R5S]`, “normalised enrichment score” read 0.311.
`TSVRRALFTGGLD [S12L]`: “normalised enrichment score” 3.36.
`TSVRRALFMGGSD [T9M]`: “normalised enrichment score” 3.41.
For `TSVRRALFTGESD [G11E]`, “normalised enrichment score” read 4.33.
Under “normalised enrichment score”, `TSVRRALFCGGSD [T9C]` is recorded as 3.11.
Under “normalised enrichment score”, `TSVRWALFTGGSD [R5W]` is recorded as 0.459.
Under “normalised enrichment score”, `TSVRRALGTGGSD [F8G]` is recorded as 0.259.
Under “normalised enrichment score”, `TSVRRFLFTGGSD [A6F]` is recorded as 0.794.
For `TSVRRALFTGASD [G11A]`, “normalised enrichment score” read 3.87.
`TSVRRALFTGGCD [S12C]`: “normalised enrichment score” 4.13.
`TSVARALFTGGSD [R4A]`: “normalised enrichment score” 1.06.
Under “normalised enrichment score”, `TSVRRQLFTGGSD [A6Q]` is recorded as 6.66.
Under “normalised enrichment score”, `TSVRRKLFTGGSD [A6K]` is recorded as 6.16.
For `TSVRRALFTHGSD [G10H]`, “normalised enrichment score” read 2.97.
For `TSVRFALFTGGSD [R5F]`, “normalised enrichment score” read 0.275.
For `TSVRRALFTVGSD [G10V]`, “normalised enrichment score” read 3.39.

Set 3 — technique: protein binding microarray; form: double-stranded DNA, one strand shown; sample: in vitro; tested at: not given; reference: not given; reading: higher = stronger binding
Target: Histone acetyltransferase KAT6A, winged helix 2, GST fusion (KAT6A, Homo sapiens, UniProt Q92794, residues 85-181)
Notes: 8-mer, flanks averaged, mean of 2 arrays, mostly near background
Construct (chain): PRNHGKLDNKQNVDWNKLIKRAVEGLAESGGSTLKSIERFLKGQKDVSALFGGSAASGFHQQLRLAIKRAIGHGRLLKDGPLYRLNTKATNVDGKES
With `AGCTGAGA` the E-score was -0.0354.
The E-score of `CCATCGGC` is reported as 0.00101.
For `CCTTGTGC`, the E-score was -0.0552.
With `AGGGTGAT` the E-score was -0.0623.
With `AACTTGGG` the E-score was -0.0369.
The E-score of `TCTAGGAA` is reported as -0.0813.
`CCATGCTC` gave an E-score of 0.108.
The E-score of `GTCTAAAC` is reported as 0.0517.

Set 4 — Molecule: B1 (IAA17); technique: two-hybrid; reading: higher = firmer interaction
B1: IAA17 (Arabidopsis thaliana, UniProt P93830); chain MMGSVELNLRETELCLGLPGGDTVAPVTGNKRGFSETVDLKLNLNNEPANKEGSTTHDVVTFDSKEKSACPKDPAKPPAKAQVVGWPPVRSYRKNVMVSCQKSSGGPEAAAFVKVSMDGAPYLRKIDLRMYKSYDELSNALSNMFSSFTMGKHGGEEGMIDFMNERKLMDLVNSWDYVPSYEDKDGDWMLVGDVPWPMFVDTCKRLRLMKGSDAIGLAPRAMEKCKSRA
It gave 3 for positive tests (IAA27 (Arabidopsis thaliana, UniProt Q9ZSY8); reference: out of 4 tests).
For ARF19 948-1086 (Arabidopsis thaliana, UniProt Q8RYC8); reference: out of 3 tests: positive tests read 3.
It gave 2 for positive tests (ARF10 575-693 (Arabidopsis thaliana, UniProt Q9SKN5); reference: out of 4 tests).
IAA33 (Arabidopsis thaliana, UniProt Q9FKM7); reference: out of 4 tests — positive tests: 1.
The positive tests was 0 (IAA30 (Arabidopsis thaliana, UniProt Q9M1R4); weak activation fusion; reference: out of 4 tests).
For ARF2 727-859 (Arabidopsis thaliana, UniProt Q94JM3); reference: out of 4 tests: positive tests read 0.
It gave 0 for positive tests (ARF1 538-665 (Arabidopsis thaliana, UniProt Q8L7G0); reference: out of 4 tests).

Mixed results
`HNRNPA1L3 (Homo sapiens, UniProt A0A2R8Y4L2)` — result for interaction screen: “cross-linked” (HNRNPA2B1 (Homo sapiens, UniProt P22626); cross-linking MS; hits only).

Excerpt of the above (set 3):
The E-score of `TCTAGGAA` is reported as -0.0813.
`CCATGCTC` gave an E-score of 0.108.
The E-score of `GTCTAAAC` is reported as 0.0517.
